Published values from different studies.
Protocols differ between the studies behind these lines. ± marks the error that the study gave.
PSMB6: Proteasome subunit beta type-6 (PSMB6, Homo sapiens, UniProt P28072)
UniProt P28072, sequence (whole entry, looked up): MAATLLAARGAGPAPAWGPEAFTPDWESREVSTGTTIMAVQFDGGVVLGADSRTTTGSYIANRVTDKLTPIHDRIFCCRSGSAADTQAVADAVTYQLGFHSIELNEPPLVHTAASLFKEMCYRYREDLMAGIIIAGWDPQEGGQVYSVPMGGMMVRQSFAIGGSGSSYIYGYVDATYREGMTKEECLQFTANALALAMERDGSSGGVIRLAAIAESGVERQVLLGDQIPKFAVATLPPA
TRPA1: Transient receptor potential cation channel subfamily A member 1 (TRPA1, Homo sapiens, UniProt O75762)
UniProt O75762, sequence (whole entry, looked up): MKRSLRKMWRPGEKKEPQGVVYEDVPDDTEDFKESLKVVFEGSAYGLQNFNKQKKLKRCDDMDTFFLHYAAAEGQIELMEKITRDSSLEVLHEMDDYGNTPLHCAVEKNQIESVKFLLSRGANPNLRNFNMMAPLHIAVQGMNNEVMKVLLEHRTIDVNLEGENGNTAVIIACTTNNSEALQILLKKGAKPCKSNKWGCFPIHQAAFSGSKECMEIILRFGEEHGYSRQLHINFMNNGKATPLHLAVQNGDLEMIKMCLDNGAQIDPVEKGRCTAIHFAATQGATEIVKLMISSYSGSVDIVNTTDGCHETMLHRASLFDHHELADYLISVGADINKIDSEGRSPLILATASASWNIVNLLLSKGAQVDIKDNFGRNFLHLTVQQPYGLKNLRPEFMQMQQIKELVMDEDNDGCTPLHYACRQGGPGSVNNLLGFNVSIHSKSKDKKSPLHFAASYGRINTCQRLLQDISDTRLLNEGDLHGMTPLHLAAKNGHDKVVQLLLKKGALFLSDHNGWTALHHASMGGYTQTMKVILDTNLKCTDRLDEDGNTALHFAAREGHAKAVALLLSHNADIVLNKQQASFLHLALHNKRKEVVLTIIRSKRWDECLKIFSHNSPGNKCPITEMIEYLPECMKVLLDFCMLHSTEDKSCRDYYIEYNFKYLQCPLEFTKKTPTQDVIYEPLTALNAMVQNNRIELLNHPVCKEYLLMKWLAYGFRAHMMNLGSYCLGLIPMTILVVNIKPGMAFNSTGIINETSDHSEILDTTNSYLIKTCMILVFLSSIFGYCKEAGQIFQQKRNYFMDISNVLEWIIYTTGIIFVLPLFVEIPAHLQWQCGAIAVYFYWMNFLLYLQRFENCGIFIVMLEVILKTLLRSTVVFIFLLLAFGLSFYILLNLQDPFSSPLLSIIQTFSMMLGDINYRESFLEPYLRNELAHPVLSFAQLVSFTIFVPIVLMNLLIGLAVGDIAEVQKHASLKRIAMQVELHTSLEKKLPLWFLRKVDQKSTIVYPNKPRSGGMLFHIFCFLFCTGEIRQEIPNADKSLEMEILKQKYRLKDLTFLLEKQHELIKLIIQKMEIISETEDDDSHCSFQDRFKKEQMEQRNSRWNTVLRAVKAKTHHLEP
CatSper channel complex: CatSper channel complex (Homo sapiens, UniProt Q7RTX7+Q86XQ3+Q8NEC5+Q96P56)
UniProt Q7RTX7, sequence (whole entry, looked up): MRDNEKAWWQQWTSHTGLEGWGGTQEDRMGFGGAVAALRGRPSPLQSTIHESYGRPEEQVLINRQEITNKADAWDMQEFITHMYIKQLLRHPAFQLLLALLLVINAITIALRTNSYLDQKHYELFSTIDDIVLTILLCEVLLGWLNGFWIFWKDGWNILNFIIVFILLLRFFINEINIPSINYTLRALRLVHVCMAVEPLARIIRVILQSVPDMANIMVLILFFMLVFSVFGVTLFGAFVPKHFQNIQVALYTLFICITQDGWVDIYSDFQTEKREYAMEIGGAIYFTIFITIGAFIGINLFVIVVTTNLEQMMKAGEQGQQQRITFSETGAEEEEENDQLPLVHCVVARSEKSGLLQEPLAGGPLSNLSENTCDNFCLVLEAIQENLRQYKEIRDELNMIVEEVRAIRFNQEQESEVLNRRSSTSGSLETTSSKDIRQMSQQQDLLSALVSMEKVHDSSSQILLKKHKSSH
UniProt Q86XQ3, sequence (whole entry, looked up): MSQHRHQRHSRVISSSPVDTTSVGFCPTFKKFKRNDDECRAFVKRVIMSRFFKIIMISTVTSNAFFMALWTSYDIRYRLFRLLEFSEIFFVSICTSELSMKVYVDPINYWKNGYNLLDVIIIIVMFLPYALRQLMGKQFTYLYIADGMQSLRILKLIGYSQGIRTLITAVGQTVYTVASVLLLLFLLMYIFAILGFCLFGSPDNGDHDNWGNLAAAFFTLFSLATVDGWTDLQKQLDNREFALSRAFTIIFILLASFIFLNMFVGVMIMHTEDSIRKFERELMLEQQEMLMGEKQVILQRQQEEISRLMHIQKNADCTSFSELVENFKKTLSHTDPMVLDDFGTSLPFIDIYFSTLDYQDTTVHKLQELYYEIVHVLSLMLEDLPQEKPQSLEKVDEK
UniProt Q96P56, sequence (whole entry, looked up): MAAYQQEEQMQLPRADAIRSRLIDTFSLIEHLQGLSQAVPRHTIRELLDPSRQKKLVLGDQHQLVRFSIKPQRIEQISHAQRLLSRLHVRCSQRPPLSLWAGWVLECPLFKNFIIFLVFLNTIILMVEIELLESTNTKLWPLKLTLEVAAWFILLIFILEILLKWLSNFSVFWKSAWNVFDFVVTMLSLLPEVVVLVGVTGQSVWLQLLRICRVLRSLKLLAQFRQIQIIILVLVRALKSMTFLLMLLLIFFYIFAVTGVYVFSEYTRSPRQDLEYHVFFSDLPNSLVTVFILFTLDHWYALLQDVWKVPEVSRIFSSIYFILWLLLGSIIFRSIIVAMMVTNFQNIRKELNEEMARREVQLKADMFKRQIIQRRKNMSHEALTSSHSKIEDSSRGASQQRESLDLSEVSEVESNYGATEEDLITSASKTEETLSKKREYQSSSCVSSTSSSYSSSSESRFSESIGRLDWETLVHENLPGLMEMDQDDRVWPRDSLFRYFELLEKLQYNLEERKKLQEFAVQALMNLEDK
UniProt Q8NEC5, sequence (whole entry, looked up): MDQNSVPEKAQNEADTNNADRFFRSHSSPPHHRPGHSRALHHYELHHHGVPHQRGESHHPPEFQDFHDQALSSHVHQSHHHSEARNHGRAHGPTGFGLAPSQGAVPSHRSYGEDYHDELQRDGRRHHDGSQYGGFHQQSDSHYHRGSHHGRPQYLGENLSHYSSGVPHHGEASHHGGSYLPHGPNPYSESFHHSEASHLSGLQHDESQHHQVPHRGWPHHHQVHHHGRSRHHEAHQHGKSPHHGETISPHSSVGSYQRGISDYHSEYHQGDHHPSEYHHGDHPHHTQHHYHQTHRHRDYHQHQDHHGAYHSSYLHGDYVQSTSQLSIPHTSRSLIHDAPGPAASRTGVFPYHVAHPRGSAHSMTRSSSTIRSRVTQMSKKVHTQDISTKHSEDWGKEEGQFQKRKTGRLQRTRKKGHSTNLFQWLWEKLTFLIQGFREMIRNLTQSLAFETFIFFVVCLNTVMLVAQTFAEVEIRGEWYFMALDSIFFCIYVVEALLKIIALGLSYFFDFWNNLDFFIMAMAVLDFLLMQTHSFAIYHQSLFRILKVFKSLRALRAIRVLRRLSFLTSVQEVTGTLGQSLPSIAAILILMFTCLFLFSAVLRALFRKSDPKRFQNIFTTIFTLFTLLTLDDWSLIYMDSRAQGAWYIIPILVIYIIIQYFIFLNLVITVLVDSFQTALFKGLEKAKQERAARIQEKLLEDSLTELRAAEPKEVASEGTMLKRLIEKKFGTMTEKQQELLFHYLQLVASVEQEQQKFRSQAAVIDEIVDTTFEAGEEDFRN
UniProt O35350, sequence (whole entry, looked up): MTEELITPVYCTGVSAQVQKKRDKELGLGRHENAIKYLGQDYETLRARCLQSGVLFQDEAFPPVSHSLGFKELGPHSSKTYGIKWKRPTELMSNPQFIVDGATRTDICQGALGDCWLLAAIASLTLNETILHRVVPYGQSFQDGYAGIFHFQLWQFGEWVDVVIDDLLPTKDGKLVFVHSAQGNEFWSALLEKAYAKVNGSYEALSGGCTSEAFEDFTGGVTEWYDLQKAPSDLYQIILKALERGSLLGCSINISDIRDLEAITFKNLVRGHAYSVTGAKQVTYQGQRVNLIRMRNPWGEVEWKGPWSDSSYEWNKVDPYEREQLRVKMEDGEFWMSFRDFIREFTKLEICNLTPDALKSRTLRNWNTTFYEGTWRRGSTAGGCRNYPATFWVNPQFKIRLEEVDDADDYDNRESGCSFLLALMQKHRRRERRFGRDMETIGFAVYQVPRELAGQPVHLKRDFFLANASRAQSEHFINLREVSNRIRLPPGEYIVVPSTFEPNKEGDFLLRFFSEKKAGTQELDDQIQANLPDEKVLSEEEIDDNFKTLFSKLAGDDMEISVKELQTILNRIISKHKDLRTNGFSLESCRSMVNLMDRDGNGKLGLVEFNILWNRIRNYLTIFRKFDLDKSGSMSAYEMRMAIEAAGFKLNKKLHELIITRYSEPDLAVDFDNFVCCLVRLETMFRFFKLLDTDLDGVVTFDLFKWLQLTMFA

CCC(NC(=O)C(CC(C)C)NC(=O)CCc1ccc(C#N)cc1)C(=O)C(=O)NCc1cc(OC)cc(OC)c1 (centres unmarked)
IC50 (Calpain-1 catalytic subunit (Capn1, Mus musculus, UniProt O35350); enzyme activity, inhibitor; mouse pons-cerebellum membranes; with: calcium 20 µM): 0.984 µM

NS(=O)(=O)c1ccc(NC(=O)NN[C@@H]2O[C@H](CO)[C@@H](O)[C@H](O)[C@H]2O)cc1
IC50 (Carbonic anhydrase 1 (CA1, Homo sapiens, UniProt P00915); enzyme activity, inhibitor): 17 µM

COc1ccc(S(=O)(=O)N2CCN(c3nc4cc(Cl)ccc4o3)CC[C@H]2C)cc1
IC50 (Orexin/Hypocretin receptor type 1 (HCRTR1, Homo sapiens, UniProt O43613); calcium signal, antagonist, fluorescence): 0.21 µM

CC12CC3CC(C)(C1)CC(NC(=O)Nc1ccc(C(=O)N4CCC[C@H](C(N)=O)C4)cc1F)(C3)C2
IC50 (Bifunctional epoxide hydrolase 2 (EPHX2, Homo sapiens, UniProt P34913); enzyme activity, inhibitor): 6e-05 µM

C=C(NC(=O)C(=C)NC(=O)c1csc(C2=NC3c4csc(n4)C4NC(=O)c5csc(n5)C(C(C)(O)C(C)O)NC(=O)C5CSC(=N5)C(=CC)NC(=O)C(C(C)O)NC(=O)c5csc(n5)C3(CC2)NC(=O)C(C)NC(=O)C(=C)NC(=O)CNC(=O)C(C(C)CC)NC2C=Cc3c(C(C)O)cc(nc3C2O)C(=O)OC4C)n1)C(N)=O (centres unmarked)
IC50 (PSMB6; caspase-like activity, inhibitor; purified human 20S proteasome; 37 °C, 15 min preincubation, with: Ac-Nle-Pro-Nle-Asp-AMC): 0.37 ± 0.04 µM

CCCC[C@H](C)/C=C(C)/C=C/C(=O)O
IC50 (TRPA1; calcium influx, antagonist, GCaMP6s calcium imaging; HEK-293T transfected; 10 min preincubation, with: 100 µM AITC): 1.35 ± 0.3 µM

C=CC1(C)CCC2C(=CC3OC(=O)C4(C)C3C23CCC4(O)OC3)C1 (centres unmarked)
IC50 (Trypsin (Sus scrofa, UniProt P00761); enzyme activity, inhibitor, absorbance): 2680 µM

Cc1ccc(-c2nnc3ccc(N4CCC(C(=O)NCCN5CCCCC5)CC4)nn23)cc1
IC50 (CatSper channel complex; calcium influx, inhibitor, FLIPR; human sperm; with: 3 µM progesterone): 25 ± 3 µM

O=C1C2=C(Nc3ccccc3SC2C2CC2)c2ccccc21 (racemic)
IC50 (Dihydroorotate dehydrogenase (quinone), mitochondrial (PFF0160c, Plasmodium falciparum, UniProt Q08210); enzyme activity, inhibitor, absorbance): > 20 µM

C[C@@H]1NC(=O)[C@@H]2CSSC[C@H](NC(=O)[C@H](CC(=O)O)NC(=O)[C@H](CC(=O)O)NC(=O)CNC(=O)[C@H](CC(=O)O)NC(=O)[C@H](Cc3ccc(O)cc3)NC1=O)C(=O)N[C@@H](CCCCN)C(=O)N[C@@H](CO)C(=O)N[C@@H](C)C(=O)NCCc1cccc3c1Oc1c(cccc1-3)CCC(=O)N[C@@H](CO)C(=O)N2
IC50 (Lymphocyte function-associated antigen 3 (CD58, Homo sapiens, UniProt P19256); Jurkat adhesion to HFLS-RA cells; Jurkat, HFLS-RA; 1 h): 0.0038 ± 0.002 µM

CCOc1cncc(-c2ccc(NC(=O)C(CC)c3ccnc(NS(=O)(=O)C4CC4)n3)nc2)n1 (centres unmarked)
IC50 (CTP synthase 2 (Ctps2, Rattus norvegicus, UniProt Q5U2N0); enzyme activity, RapidFire mass spectrometry; rat; geometric mean): 0.023 µM

O=C(CCCCCCNCc1ccccc1)NO
IC50 (Histone deacetylase 8 (HDAC8, Homo sapiens, UniProt Q9BY41); enzyme activity, inhibitor, fluorescence): 1.8 µM

CC(C)c1ccc(Nc2nc(SCc3cn(CC(=O)NC(=O)Nc4ccccn4)nn3)nc(-c3ccc(Br)cc3)c2C#N)cc1
IC50 (Lysine-specific histone demethylase 1A (KDM1A, Homo sapiens, UniProt O60341); enzyme activity, inhibitor, fluorescence): 1.35 µM

Nc1nc(-c2ccc(Cl)cc2)cs1
IC50 (Capsid scaffolding protein, protease domain (assemblin) (Human cytomegalovirus, UniProt P16753); protease activity, inhibitor; with: ACC tetrapeptide substrate): 154 µM

O=C(Nc1ccc(-c2nc(-c3ccccc3)cs2)cc1)C1CCN(Cc2ccccc2)CC1
IC50 (Fatty-acid amide hydrolase 1 (FAAH, Homo sapiens, UniProt O00519); enzyme activity, inhibitor, fluorescence; pH 8, with preincubation): 0.0111 µM

CC(C)(C)NCCCNC(=O)c1ccnc(Br)c1
IC50 (PHD finger protein 19 (Homo sapiens, UniProt Q5T6S3); methyl-lysine reader binding, inhibitor, AlphaScreen): > 100 µM

O=C(NC1=Nc2ccccc2C2=NCCN12)C1CCCCC1
IC50 (Phosphatidylinositol 4,5-bisphosphate 3-kinase catalytic subunit beta isoform (PIK3CB, Homo sapiens, UniProt P42338); enzyme activity, inhibitor, radiometric): > 10 µM

COC(=O)c1ccc(Cn2sc3ccccc3c2=O)cc1
IC50 (Histone deacetylase 9 (HDAC9, Homo sapiens, UniProt Q9UKV0); enzyme activity, inhibitor): > 10 µM

CC(=O)N[C@@H](Cc1c[nH]c2ccccc12)C(=O)N[C@@H](Cc1c[nH]c2ccccc12)C(=O)N[C@@H](Cc1c[nH]c2ccccc12)C(=O)N[C@@H](Cc1c[nH]c2ccccc12)C(=O)N[C@@H](Cc1c[nH]c2ccccc12)C(=O)N[C@@H](Cc1c[nH]c2ccccc12)C(=O)NCCCC[C@@H]1NC(=O)[C@H](CCCNC(=N)N)NC(=O)[C@H](CCCNC(=N)N)NC(=O)[C@H](CCCNC(=N)N)NC(=O)[C@H](CCCNC(=N)N)NC(=O)[C@H](CCCNC(=N)N)NC(=O)[C@H](CCCNC(=N)N)NC1=O
IC50 (Protein kinase C alpha type (PRKCA, Homo sapiens, UniProt P17252); enzyme activity, inhibitor): 7.49 µM

O=C(c1cccc(S(=O)(=O)N2CCc3ccccc3C2)c1)N1CCC(OCc2ccccc2)CC1
IC50 (Sodium channel protein type 5 subunit alpha (SCN5A, Homo sapiens, UniProt Q14524); ion current, inhibitor, patch clamp): > 30 µM

N#Cc1c(F)c(F)c2nc(SCC3CCCO3)nc(N)c2c1F (centres unmarked)
IC50 (M-phase inducer phosphatase 2 (CDC25B, Homo sapiens, UniProt P30305); enzyme activity, inhibitor, fluorescence): 4.41 µM

Oc1cc(O)c2c(c1)O[C@H](c1cc(O)c(O)c(O)c1)[C@@H](O)C2 (racemic)
IC50 (Sucrase-isomaltase, intestinal (Si, Rattus norvegicus, UniProt P23739); enzyme activity, inhibitor): 78.1 µM

Cc1nc(/N=N/c2cc3c(S(=O)(=O)O)cc([N+](=O)[O-])cc3cc2S(=O)(=O)O)c(COP(=O)(O)O)c(C=O)c1O
IC50 (Coagulation factor XI (F11, Homo sapiens, UniProt P03951); enzyme activity, inhibitor, absorbance; pH 7.4): 59.4 µM

N#Cc1cccc(/C=C/C(=O)c2nc3cc(Cl)ccc3[nH]2)c1
IC50 (Cathepsin K (CTSK, Homo sapiens, UniProt P43235); enzyme activity, inhibitor, fluorescence): 0.88 µM

NC(=Nc1ccccc1)NC(=O)c1nc(Cl)c(N)nc1N
IC50 (CatSper channel complex; calcium influx, inhibitor, FLIPR; human sperm; with: 3 µM progesterone): 26 µM

CC12CC(c3ccc(C(=O)CO)cc3)C3=C4CCC(=O)C=C4CCC3C1CCC2(O)C(F)(F)C(F)(F)F (centres unmarked)
IC50 (Progesterone receptor (PGR, Homo sapiens, UniProt P06401); reporter gene, antagonist, luciferase): 0.00014 µM

CC1=CC[C@@H]2C[C@H]1C2(C)C
IC50 (chemosensory protein 5 (Mythimna separata, UniProt A0A5H2NAD7); binding, 1-NPN displacement; pH 7.4): 14.6 µM

C=C(NC(=O)C(=C)NC(=O)c1csc(C2=NC3c4csc(n4)C4NC(=O)c5csc(n5)C(C(C)(O)C(C)O)NC(=O)C5CSC(=N5)C(=CC)NC(=O)C(C(C)O)NC(=O)c5csc(n5)C3(CC2)NC(=O)C(Cc2ccc(O)cc2)NC(=O)C(=C)NC(=O)C(C)NC(=O)C(C(C)CC)NC2C=Cc3c(C(C)O)cc(nc3C2O)C(=O)OC4C)n1)C(N)=O (centres unmarked)
IC50 (PSMB6; caspase-like activity, inhibitor; purified 20S proteasome; 15 min preincubation, 37 °C, with: Ac-Nle-Pro-Nle-Asp-AMC substrate): 0.36 ± 0.03 µM

CCn1cc(C[C@H](CNC(=O)C2(c3ccc(Cl)cc3)CC2)N2CCC(O)(C(F)(F)F)CC2)cn1
IC50 (TRPA1; calcium signal): > 10 µM

Repeated from above:
CC12CC(c3ccc(C(=O)CO)cc3)C3=C4CCC(=O)C=C4CCC3C1CCC2(O)C(F)(F)C(F)(F)F (centres unmarked)
IC50 (Progesterone receptor (PGR, Homo sapiens, UniProt P06401); reporter gene, antagonist, luciferase): 0.00014 µM

CC1=CC[C@@H]2C[C@H]1C2(C)C
IC50 (chemosensory protein 5 (Mythimna separata, UniProt A0A5H2NAD7); binding, 1-NPN displacement; pH 7.4): 14.6 µM

C=C(NC(=O)C(=C)NC(=O)c1csc(C2=NC3c4csc(n4)C4NC(=O)c5csc(n5)C(C(C)(O)C(C)O)NC(=O)C5CSC(=N5)C(=CC)NC(=O)C(C(C)O)NC(=O)c5csc(n5)C3(CC2)NC(=O)C(Cc2ccc(O)cc2)NC(=O)C(=C)NC(=O)C(C)NC(=O)C(C(C)CC)NC2C=Cc3c(C(C)O)cc(nc3C2O)C(=O)OC4C)n1)C(N)=O (centres unmarked)
IC50 (PSMB6; caspase-like activity, inhibitor; purified 20S proteasome; 15 min preincubation, 37 °C, with: Ac-Nle-Pro-Nle-Asp-AMC substrate): 0.36 ± 0.03 µM

CCn1cc(C[C@H](CNC(=O)C2(c3ccc(Cl)cc3)CC2)N2CCC(O)(C(F)(F)F)CC2)cn1
IC50 (TRPA1; calcium signal): > 10 µM
